Assay results from different studies.
Every numbered part comes from another study and shows a few of its results, in no order. Changes are numbered by the printed parent chain.

Series 1 — target: vanadate, free oxyanion; technique: microfluidic competitive inhibition; medium: in vitro, cell-free expressed; tested at: not given; direction: lower = stronger binding
Setting: derived from inhibition constants, unchanged parent 676 nM
Parent: PafA, mature enzyme, eGFP fusion (Elizabethkingia meningoseptica, UniProt Q9KJX5); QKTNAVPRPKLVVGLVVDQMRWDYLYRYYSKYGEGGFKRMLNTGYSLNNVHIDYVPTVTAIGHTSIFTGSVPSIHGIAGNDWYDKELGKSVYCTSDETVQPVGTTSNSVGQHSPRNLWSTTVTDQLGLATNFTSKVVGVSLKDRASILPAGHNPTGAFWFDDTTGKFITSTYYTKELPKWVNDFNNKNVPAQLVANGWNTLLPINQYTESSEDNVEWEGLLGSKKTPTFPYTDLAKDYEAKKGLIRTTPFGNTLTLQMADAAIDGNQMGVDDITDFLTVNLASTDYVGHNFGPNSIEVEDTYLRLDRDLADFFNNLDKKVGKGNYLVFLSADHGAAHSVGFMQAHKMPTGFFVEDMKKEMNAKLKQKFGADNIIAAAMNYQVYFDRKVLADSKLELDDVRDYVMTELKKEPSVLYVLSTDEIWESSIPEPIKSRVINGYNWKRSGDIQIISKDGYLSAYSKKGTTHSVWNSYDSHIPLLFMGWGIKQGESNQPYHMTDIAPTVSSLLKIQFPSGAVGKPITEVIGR
Substitution | oxyanion analog dissociation constant [nM]
R386V | 734
I449V | 792
L234V | 633
K2V | 629
K31V | 716
N116G | 1100
Q19V | 20500
S471G | 754

Series 2 — observed: binding; technique: phage display NGS; form: peptide; tested at: concentration not given; reference: input library
Target: UDP-N-acetylglucosamine--peptide N-acetylglucosaminyltransferase 110 kDa subunit (OGT, Homo sapiens, UniProt O15294)
Chain of UniProt O15294 (whole entry, looked up): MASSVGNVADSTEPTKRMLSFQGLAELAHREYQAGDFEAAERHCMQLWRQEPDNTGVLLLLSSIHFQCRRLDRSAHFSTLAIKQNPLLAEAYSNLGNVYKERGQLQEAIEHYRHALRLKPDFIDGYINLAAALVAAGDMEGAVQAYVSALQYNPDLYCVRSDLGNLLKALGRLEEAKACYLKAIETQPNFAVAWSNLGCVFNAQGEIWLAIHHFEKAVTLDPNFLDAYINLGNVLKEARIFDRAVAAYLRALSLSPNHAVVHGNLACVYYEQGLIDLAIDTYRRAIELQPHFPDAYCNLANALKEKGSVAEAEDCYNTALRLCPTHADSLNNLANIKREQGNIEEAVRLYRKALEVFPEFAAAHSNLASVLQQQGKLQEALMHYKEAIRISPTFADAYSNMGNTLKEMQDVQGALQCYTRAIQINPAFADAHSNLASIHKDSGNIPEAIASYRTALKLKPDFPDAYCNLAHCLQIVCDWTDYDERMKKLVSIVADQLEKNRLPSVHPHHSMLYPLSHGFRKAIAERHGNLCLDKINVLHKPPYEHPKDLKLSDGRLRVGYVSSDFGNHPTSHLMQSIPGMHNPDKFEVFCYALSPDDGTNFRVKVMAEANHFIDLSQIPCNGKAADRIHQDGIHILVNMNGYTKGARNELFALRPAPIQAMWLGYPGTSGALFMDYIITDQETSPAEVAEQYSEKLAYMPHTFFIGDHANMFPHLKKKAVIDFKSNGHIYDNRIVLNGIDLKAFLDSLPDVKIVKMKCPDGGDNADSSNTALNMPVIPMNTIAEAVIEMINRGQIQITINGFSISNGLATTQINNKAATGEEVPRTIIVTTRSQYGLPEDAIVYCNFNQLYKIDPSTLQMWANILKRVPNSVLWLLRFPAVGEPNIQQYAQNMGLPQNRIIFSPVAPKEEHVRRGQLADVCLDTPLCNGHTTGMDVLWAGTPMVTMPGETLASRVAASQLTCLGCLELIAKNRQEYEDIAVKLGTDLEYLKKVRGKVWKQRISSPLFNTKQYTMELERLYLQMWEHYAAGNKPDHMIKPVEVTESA
Molecule | enrichment fold change
QHYQHHSHDKSHPYE | 4.15
MEEYLPQYTIEVVPI | 2.61
HQLQIHHRSHLNDYP | 5.04
FLPQYKIEVPFSVYK | 1.89
AFVPPWAPMYQIVMG | 2.47
SFPRHQHTYHTQPSR | 5.24

Series 3 — target: CCNA1, cyclin fold, Cln2 fusion (human); technique: yeast growth competition, sequencing; medium: yeast; setting: strong parent motif; reference: not given; direction: higher = stronger binding
Parent: viral docking peptide; YKVKRRLVFGADD; partner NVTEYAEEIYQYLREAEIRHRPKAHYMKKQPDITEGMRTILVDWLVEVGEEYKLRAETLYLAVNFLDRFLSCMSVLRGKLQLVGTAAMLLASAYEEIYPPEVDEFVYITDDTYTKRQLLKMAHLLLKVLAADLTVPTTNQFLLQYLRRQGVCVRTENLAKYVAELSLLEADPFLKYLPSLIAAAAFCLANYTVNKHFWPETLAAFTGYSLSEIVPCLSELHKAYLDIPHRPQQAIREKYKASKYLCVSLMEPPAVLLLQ
Substitution | normalised enrichment score
V8F | 0.709
F9I | 0.504
K2R | 1.31
A11M | 1.37
V3A | 0.884
R6V | 0.875
D12P | 1.34
A11I | 1.33

Other studies, line by line
SMILES | cell line | conditions | scale | quantity | result
COc1ccc(OC)c(C(O)CNC(=O)CN)c1 (centres unmarked) | HEK-293T/ACE2 | concentration not given, 16 (unit not given) | reference: vehicle | viability | 101%

For quick reference, copied from above (series 1):
Substitution | oxyanion analog dissociation constant [nM]
L234V | 633
K2V | 629
K31V | 716
N116G | 1100
